Measurements pooled from the literature.
Numbered parts are unrelated; each lists some results of a single study.

Sample 1 — method: protein-binding microarray; form: double-stranded DNA, one strand shown; medium: in vitro; concentration: 2200 nM top; notes: 60-bp whole probe; together with: salmon DNA 0.4 mg/ml; relative to: random background probes; direction: higher = stronger binding; shared flanks, not repeated: GCCTAGCAC … GTCTTGATTCGCTTGACGCTGCTG
Target: Interferon regulatory factor 7, full length, phosphomimetic (IRF7, Homo sapiens, UniProt Q92985, residues 1-503, S471D/S472D/S475D/S476D/S477D/S483D/S484D/S487D)
Chain of UniProt Q92985 (whole entry, unmodified, looked up): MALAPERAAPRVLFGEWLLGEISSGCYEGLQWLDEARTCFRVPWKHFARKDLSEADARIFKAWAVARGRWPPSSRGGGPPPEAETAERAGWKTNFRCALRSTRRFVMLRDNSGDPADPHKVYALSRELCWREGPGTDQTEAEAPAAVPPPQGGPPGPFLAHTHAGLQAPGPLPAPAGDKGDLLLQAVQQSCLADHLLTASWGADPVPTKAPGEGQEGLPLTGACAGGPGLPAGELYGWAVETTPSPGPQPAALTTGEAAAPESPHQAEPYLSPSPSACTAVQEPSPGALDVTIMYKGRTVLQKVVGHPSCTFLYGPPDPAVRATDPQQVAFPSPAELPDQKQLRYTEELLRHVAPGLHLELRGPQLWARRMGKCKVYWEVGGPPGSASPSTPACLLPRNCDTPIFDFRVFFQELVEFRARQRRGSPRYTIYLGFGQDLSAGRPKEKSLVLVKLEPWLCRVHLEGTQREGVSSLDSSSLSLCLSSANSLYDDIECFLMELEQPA
For `TTAGGTCTCGCTATCGGTTAGTGCTAG`, “fitted relative affinity” read 0.924 z-score.
Under “fitted relative affinity”, `TTACGACTGGGGTTTCGGTTAGTGCTA` is recorded as 3.7 z-score.
`GACGGTCTCCTTTCCCTGACGTGCTAG` — result for “fitted relative affinity”: 1.43 z-score.
`GATGATATCAGTCTCGAGACGTGCTAG` — result for “fitted relative affinity”: 0.598 z-score.
`TTATATCTCAGTTTCGATTAGTGCTAG` — result for “fitted relative affinity”: 6.2 z-score.
For `GACGGAATGGGTATCGGGACGTGCTAG`, “fitted relative affinity” read -0.332 z-score.
Under “fitted relative affinity”, `TTAGAACTCAGTTTCGATTAGTGCTAG` is recorded as 5.38 z-score.
`TGAGGTCTCCTTTTCCTTTAGTGCTAG` — result for “fitted relative affinity”: 1.7 z-score.
For `GACGAACTGAGCATCGAGACGTGCTAG`, “fitted relative affinity” read -0.0955 z-score.
Under “fitted relative affinity”, `GACGGACTGGGGACGGGGGACGTGCTA` is recorded as 0.328 z-score.
Under “fitted relative affinity”, `AGGCATGTGGGTTCCATCATGTGCTAG` is recorded as -0.0896 z-score.
Under “fitted relative affinity”, `GACGGTTGCGACACTGGGGACGTGCTA` is recorded as -0.399 z-score.
`TTAGCTTTCCTTCTCCTTTAGTGCTAG` — result for “fitted relative affinity”: 2.81 z-score.
`TTAGGACTGGACACTTGGTTAGTGCTA`: “fitted relative affinity” -0.653 z-score.
`GATGATATCAGTTTCGAGACGTGCTAG` — result for “fitted relative affinity”: 3.89 z-score.
`TTAGGACTCGACTATCGGTTAGTGCTA` — result for “fitted relative affinity”: -0.0446 z-score.
Under “fitted relative affinity”, `TTAGGTTTTGGTTTCGGTTAGTGCTAG` is recorded as 8.37 z-score.
`TCACTCCTCTTTTTTTGACTGTGCTAG` — result for “fitted relative affinity”: 2.05 z-score.
Under “fitted relative affinity”, `GCAGACTACCTATGAGTATCGTGCTAG` is recorded as 0.392 z-score.
For `GACGGTCTCCTTATCATGACGTGCTAG`, “fitted relative affinity” read 1.11 z-score.
Under “fitted relative affinity”, `CTAGATTTCGGGACTGGATTAGTGCTA` is recorded as 1.36 z-score.
`GAATGTGTCTTAAATAGGAGAGTGCTA`: “fitted relative affinity” -0.297 z-score.
For `TTAGATTTCGGGTTTCAATTAGTGCTA`, “fitted relative affinity” read 4.29 z-score.

Sample 2 — method: universal PBM; form: double-stranded DNA, one strand shown; medium: in vitro; concentration: 600 nM; direction: higher = stronger binding
Target: Sal-like protein 4, full length isoform A (SALL4, Homo sapiens, UniProt Q9UJQ4, residues 1-1053)
Chain of UniProt Q9UJQ4 (whole entry, looked up): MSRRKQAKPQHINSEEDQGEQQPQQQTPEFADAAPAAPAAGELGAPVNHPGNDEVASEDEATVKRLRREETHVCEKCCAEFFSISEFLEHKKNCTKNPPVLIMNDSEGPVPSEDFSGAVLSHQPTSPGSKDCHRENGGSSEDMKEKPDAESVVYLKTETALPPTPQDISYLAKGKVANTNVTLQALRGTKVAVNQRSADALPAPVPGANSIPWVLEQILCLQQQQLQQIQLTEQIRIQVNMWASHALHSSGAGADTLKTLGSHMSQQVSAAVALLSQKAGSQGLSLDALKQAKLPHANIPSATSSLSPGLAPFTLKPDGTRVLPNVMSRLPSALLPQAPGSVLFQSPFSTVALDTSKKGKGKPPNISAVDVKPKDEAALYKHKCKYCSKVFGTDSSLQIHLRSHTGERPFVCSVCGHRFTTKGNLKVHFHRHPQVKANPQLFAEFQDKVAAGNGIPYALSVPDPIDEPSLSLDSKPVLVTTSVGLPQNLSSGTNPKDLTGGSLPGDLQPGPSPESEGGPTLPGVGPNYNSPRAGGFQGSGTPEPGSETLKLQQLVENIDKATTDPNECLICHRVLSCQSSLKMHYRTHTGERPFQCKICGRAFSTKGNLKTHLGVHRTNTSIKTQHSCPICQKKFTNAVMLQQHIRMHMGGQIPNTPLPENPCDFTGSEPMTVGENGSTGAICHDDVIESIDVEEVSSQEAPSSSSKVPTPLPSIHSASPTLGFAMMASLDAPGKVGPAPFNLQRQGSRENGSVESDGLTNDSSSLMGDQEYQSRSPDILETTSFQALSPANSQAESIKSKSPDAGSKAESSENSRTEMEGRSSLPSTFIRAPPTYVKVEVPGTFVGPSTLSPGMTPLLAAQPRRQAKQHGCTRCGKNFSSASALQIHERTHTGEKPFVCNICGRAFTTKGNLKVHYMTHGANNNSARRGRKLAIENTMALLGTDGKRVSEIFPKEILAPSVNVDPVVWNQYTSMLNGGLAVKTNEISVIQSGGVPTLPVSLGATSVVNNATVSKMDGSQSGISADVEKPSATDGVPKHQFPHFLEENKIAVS
Notes: 8-mer, flanks averaged, mean of replicates
With `GTGGGTTA` the E-score was 0.103.
For `ACGATTGA`, the E-score was 0.0305.
`AGATCAGA` gave an E-score of -0.0101.
With `AAGGATTC` the E-score was -0.0814.
For `CAAGTTTA`, the E-score was 0.161.
With `TCGCCCCA` the E-score was -0.251.
`AATTACAT` gave an E-score of 0.286.
The E-score of `ACCATTTC` is reported as 0.116.
`GCGCGACA` has an E-score of -0.15.
With `ACGCAACC` the E-score was -0.0838.
The E-score of `GGCGTGAC` is reported as -0.266.
For `AGATGGAC`, the E-score was -0.0796.
`GACTCAAC` has an E-score of -0.0459.
With `ATTCTTTA` the E-score was 0.264.
`CCCAGTCA` gave an E-score of -0.242.
`AGATGCCA` has an E-score of -0.1.
`CCCACGTA` gave an E-score of -0.0616.
The E-score of `CGTCGACC` is reported as -0.163.
`CTCAAACA` has an E-score of 0.154.
For `AGCGCGCA`, the E-score was -0.0644.

Sample 3 — method: aptamer microarray, sandwich; form: DNA with 2'F-ANA; medium: in vitro; concentration: 200 nM; together with: Cy3 exosite-II aptamer, 400 nM; direction: higher = stronger binding; strand: GGTTGGTGTGGTTGG
Target: Prothrombin, mature alpha-thrombin (F2, Homo sapiens, UniProt P00734)
Notes: whole 15-mer aptamer, many near background
`2'F-ANA at 1 2 10 12 13 14 15` — result for “mean fluorescence intensity”: 77.1 a.u.
For `2'F-ANA at 2 4 8 11 13 15`, “mean fluorescence intensity” read 210 a.u.
`2'F-ANA at 2 5 6 7 9 10 12 13 15` — result for “mean fluorescence intensity”: 153 a.u.
For `2'F-ANA at 1 2 4 5 6 9 10 12`, “mean fluorescence intensity” read 186 a.u.
Under “mean fluorescence intensity”, `2'F-ANA at 1 2 6 8 9 13` is recorded as 121 a.u.
For `2'F-ANA at 2 3 5 6 8 11 13`, “mean fluorescence intensity” read 107 a.u.
Under “mean fluorescence intensity”, `2'F-ANA at 1 2 4 6 8 10 12 13 15` is recorded as 52.9 a.u.
Under “mean fluorescence intensity”, `2'F-ANA at 5 11 13` is recorded as 56.6 a.u.
`2'F-ANA at 9 10 12 13`: “mean fluorescence intensity” 199 a.u.
Under “mean fluorescence intensity”, `2'F-ANA at 1 3 4 5 6 11 12 13 14` is recorded as 45.8 a.u.
`2'F-ANA at 3 4 5 6 12 13 14 15` — result for “mean fluorescence intensity”: 54.6 a.u.
Under “mean fluorescence intensity”, `2'F-ANA at 1 2 4 5 8 9 10 14` is recorded as 69 a.u.
`2'F-ANA at 1 2 5 7 8 10 14` — result for “mean fluorescence intensity”: 44.8 a.u.
Under “mean fluorescence intensity”, `2'F-ANA at 1 2 4 5 6 7 10 13` is recorded as 52.6 a.u.
`2'F-ANA at 2 3 4 5 7 9 12 13 15`: “mean fluorescence intensity” 122 a.u.
For `2'F-ANA at 5 7 8 9 11 14`, “mean fluorescence intensity” read 46.4 a.u.
`2'F-ANA at 1 4 10 11 12 14 15`: “mean fluorescence intensity” 74.3 a.u.

Sample 4 — method: RNA Bind-n-Seq; form: RNA; medium: in vitro; concentration: 365 nM; relative to: no-protein control; direction: higher = stronger binding
Target: RNA binding protein fox-1 homolog 2, RRM domain, GST-SBP tag (RBFOX2, Homo sapiens, UniProt O43251-10, residues 100-194)
Notes: natural RNA segment, single round, ends assumed
Residues (chain): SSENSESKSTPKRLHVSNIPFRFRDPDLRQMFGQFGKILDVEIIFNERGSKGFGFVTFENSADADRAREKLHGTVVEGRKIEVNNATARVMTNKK
`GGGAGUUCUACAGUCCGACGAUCACUUAAAAGCAGUGUUAGUGAGUUAGGCAGAGAGAUGAAAGUAAUACAGUCAGUAAGUUUCACUGCGUGCACACUGACACGUUUGAGAUUGUAGGAGGACAUAUAAUUCAUGGAAUUCUCGGGUGCCAA` — result for “RBNS enrichment (R)”: 0.317.
`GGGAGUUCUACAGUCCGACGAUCGUAGGUGCUCAACAAAUUUAUUGAAUGAAUGAGUGAAUGGAAAAACUGGGAGAGUCAAAAGUGAGCAGAAGCUCUCCAUUUCUACUUCUGUCACAAACCACAUUAAAUUGUGGAAUUCUCGGGUGCCAA`: “RBNS enrichment (R)” 1.33.
`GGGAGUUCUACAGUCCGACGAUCUACCAAAGCAAUAUUUCUUUGGGAUUCAGUUCAGUGUUUGUGGCAUCUAAUCUGAUCCUUCUUUACGUGUCUAAAUCAAGACUGUAUCCACAUUUUACCACGCGGCCAUAUGGAAUUCUCGGGUGCCAA`: “RBNS enrichment (R)” 0.302.
For `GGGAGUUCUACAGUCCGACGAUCUUUUCUUUUUUCUUUCUAGCAUUUGAUGUCUAAAUAAUUUUGGACAUCUUUUUCCUAGACCAUGUUUCUGUCUUACUCUUAAACCUGGUAACACUUGAUUUGCCUUCUAUUGGAAUUCUCGGGUGCCAA`, “RBNS enrichment (R)” read 0.331.
For `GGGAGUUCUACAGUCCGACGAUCGCCUUCCCUGUCAGAAGGGGGUUGUGGCAAAAGCCACAUUACAAGCUGCCAUCCCCUCCCCGUUUCAGUGGACCCUGUGGCCAGGUGCUUUUCCCUAUCCACAGGGGUGUUGGAAUUCUCGGGUGCCAA`, “RBNS enrichment (R)” read 0.203.
For `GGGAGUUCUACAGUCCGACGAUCUCCCACCCCCUCCCCCUGGGGGCAAAUCAGGACACAACAGAGGGCAGAGGCCCCAUUAGCUUUAAAAUGUAGCCCCAGGUUGGAGCUGGGAACACUGUACUGGCCACUUAUGGAAUUCUCGGGUGCCAA`, “RBNS enrichment (R)” read 0.618.
Under “RBNS enrichment (R)”, `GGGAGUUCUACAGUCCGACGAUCGCCAUAUGUAGCACAGCAAUAUUCCAGAUGCUGGUGGGUAUUGCUGCUGCCCUAGAGCAAUGGCUUAAUCUUCACACAUGUGUGGUGUGGCACCAGGCACUUGACCUUGGUGGAAUUCUCGGGUGCCAA` is recorded as 0.77.
`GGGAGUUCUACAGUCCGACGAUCAGACUCUUAACGCAGGAAGGACUUCAAACUUCUGCUGAGACCUUGGGGUCAAGGAACAUUUCAUUGGUUUUUUUUGUCCACCCCCAUCUCCCUUGCUCAUUUGGAUGCGUUGGAAUUCUCGGGUGCCAA` — result for “RBNS enrichment (R)”: 0.445.
For `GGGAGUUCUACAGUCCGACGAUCGAGCACUUGGUGGCAUCAGAGCAGGAGGAGCCCCAGAGCCACCUCUGGUGUCCCCCCAGGCUACCUGCUCAGGAACCCCUUCUGUUCUCUGAGAAGUCAAGAGAGGACAUUGGAAUUCUCGGGUGCCAA`, “RBNS enrichment (R)” read 0.26.
Under “RBNS enrichment (R)”, `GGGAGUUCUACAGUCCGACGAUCCUCUGUUUCUGCAUGAAGCACACAUACUCUGGUGUCAACACGCUAAGUAGUUUAAAUGAGGGAAAGGAAAAUGCAGACCACAUCUUGCCUGCCUCGUAAGCGUUUCCUCCUGGAAUUCUCGGGUGCCAA` is recorded as 3.62.
For `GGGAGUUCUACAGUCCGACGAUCAAACCCGUCAUGACGCGGCUGCUUCGGAAGCAGACAUCUGGGGACACAGCCUCAGUACCCAGUCUUUUCCCUAGUUCCUGAAACUUUCCUAGGACCUUAAGAGAAUAGUAUGGAAUUCUCGGGUGCCAA`, “RBNS enrichment (R)” read 0.389.
`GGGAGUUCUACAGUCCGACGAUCUUAUAGAAAACUUUAGACCUGUGACAUUUUUUUGUUUUAAAUUACAAAAGAGGUUGGUAUGAUAAAGUGAUGGCUUUUUUCUUAUAUAAAUAGAAUGCAAAUCAAAGAUAUGGAAUUCUCGGGUGCCAA` — result for “RBNS enrichment (R)”: 0.955.

Further values, each from its own experiment
`PhoQ, residues 284 288 289 292 302 303 QWGLFV` gave a fold induction of 3.05 (PhoP, residues 12 14 15 18 19 DLLYY (Escherichia coli, UniProt P23836); Sort-seq, refers to: YFP reporter; E. coli; PhoQ-PhoP variant library, together with: 10 µM Mg2+; relative to: high Mg2+ state, higher = stronger signaling).

Repeated from above (sample 2):
With `ACGCAACC` the E-score was -0.0838.
The E-score of `GGCGTGAC` is reported as -0.266.
For `AGATGGAC`, the E-score was -0.0796.
`GACTCAAC` has an E-score of -0.0459.
With `ATTCTTTA` the E-score was 0.264.
`CCCAGTCA` gave an E-score of -0.242.
`AGATGCCA` has an E-score of -0.1.
`CCCACGTA` gave an E-score of -0.0616.
The E-score of `CGTCGACC` is reported as -0.163.
